{"data": "Experimental data collected from several papers", "note": "“And” joins repeats or separate records; there may be more than shown."}
{"Structure (SMILES)": "CCOC(=O)c1c(CS(=O)(=O)c2ccc(Cl)cc2)n(C)c2cc(Br)c(O)c(CN(C)C)c12", "tested on": "SARS-CoV-2", "test system": "Vero C1008, MEX-BC2/2020", "setting": "7.5 µM, 96 h", "measurement": "inhibition", "value": "11.7%"}
{"Structure (SMILES)": "Cc1ccc(N2CC(N3CCC(C)(O)CC3)C2)cc1C(=O)NC1(c2ccc3c4c(cccc24)CC3)CC1", "tested on": "SARS-CoV-2", "assay": "viral replication", "test system": "Vero C1008, XBB.1", "setting": "0.005716 µM", "measurement": "inhibition", "value": "0%"}
{"Structure (SMILES)": "C[C@@H]1O[C@@H](n2c3ccccc3c3c4c(c5c6ccccc6[nH]c5c32)CNC4=O)C[C@@H](N)[C@H]1O", "tested on": "SARS-CoV-2", "assay": "viral replication", "test system": "mNeonGreen reporter", "setting": "50 µM", "measurement": "inhibition", "value": "93%"}
{"Structure (SMILES)": "CCCCCCCCCCCCCCCC(=O)N[C@@H](CCC(=O)NCCOCCOCCC(=O)NCCOCCOCCC(=O)NCCCC[C@H](NC(=O)[C@H](CC(=O)O)NC(=O)[C@H](CC(C)C)NC(=O)[C@H](Cc1ccc(O)cc1)NC(=O)[C@H](CCCCN)NC(=O)[C@H](CO)NC(=O)[C@H](Cc1ccc(O)cc1)NC(=O)[C@H](CC(=O)O)NC(=O)[C@H](CO)NC(=O)[C@@H](NC(=O)[C@H](Cc1ccccc1)NC(=O)[C@@H](NC(=O)CNC(=O)[C@H](CCC(N)=O)NC(=O)[C@@H](CO)NC(=O)[C@@H](N)Cc1c[nH]cn1)[C@@H](C)O)[C@@H](C)O)C(=O)N[C@@H](CCCNC(=N)N)C(=O)N[C@@H](CCCNC(=N)N)C(=O)N[C@@H](C)C(=O)N[C@@H](CCC(N)=O)C(=O)N[C@@H](CC(=O)O)C(=O)N[C@@H](Cc1ccccc1)C(=O)N[C@H](C(=O)N[C@@H](CCC(N)=O)C(=O)N[C@@H](Cc1c[nH]c2ccccc12)C(=O)N[C@@H](CC(C)C)C(=O)N[C@@H](CC(C)C)C(=O)N[C@@H](CC(N)=O)C(=O)N[C@H](C(=O)NCC(=O)NCC(=O)N1CCC[C@H]1C(=O)N[C@@H](CO)C(=O)N[C@@H](CO)C(=O)NCC(=O)N[C@@H](C)C(=O)N1CCC[C@H]1C(=O)N1CCC[C@H]1C(=O)N1CCC[C@H]1C(=O)N[C@@H](CO)C(N)=O)[C@@H](C)O)C(C)C)C(=O)O", "test system": "rhesus monkey, male, plasma", "setting": "subcutaneous, 20 µg/kg, day 1, toxicokinetics, mean", "measurement": "Cmax", "value": "33.9 ng/mL"}
{"Structure (SMILES)": "Cc1ccc(N2CC3CC(C2)N3C)cc1C(=O)NC1(c2ccc3c4c(cccc24)C(=O)N3C)CC1", "tested on": "SARS-CoV-2", "assay": "viral replication", "test system": "Vero C1008, Omicron BA.5", "setting": "0.1543 µM, 72 h", "measurement": "inhibition", "value": "5%"}
{"Structure (SMILES)": "Cc1oc2nc1C(=O)N[C@](C)(C(=O)NCCc1ccccc1)c1nc(c(C)o1)C(=O)N[C@](C)(C(=O)NCCc1ccccc1)c1nc(c(C)o1)C(=O)N[C@]2(C)C(=O)NCCc1ccccc1", "tested on": "SARS-CoV-2", "assay": "viral adsorption", "test system": "Vero E6, NRC-03-nhCoV", "setting": "10 µM", "measurement": "inhibition", "value": "9%"}
{"Structure (SMILES)": "CC(C)CC(C(=O)N1CC2(CC1C#N)C(=O)Nc1ccccc12)N(C)C(=O)c1cc2c(F)cc(F)c(F)c2[nH]1 (stereo not shown)", "tested on": "SARS-CoV-2", "assay": "viral replication", "test system": "Vero E6", "setting": "0.0002 µM", "measurement": "inhibition", "value": "0% and 5.33% and 1.5% and 3.22%"}
{"Structure (SMILES)": "Cc1ccc(N2CC3CC(C2)N3)cc1C(=O)NC1(c2ccc3c4c(cccc24)C(=O)N3C)CC1", "tested on": "SARS-CoV-2", "assay": "viral replication", "test system": "Vero C1008, Omicron BA.5", "setting": "0.05144 µM", "measurement": "inhibition", "value": "0%"}
{"Structure (SMILES)": "CCOC(=O)c1c(CSc2ccccc2)n(C)c2cc(-c3cccnc3)c(O)c(CN3CCN(CCOCCO)CC3)c12", "tested on": "SARS-CoV-2", "test system": "Vero C1008, MEX-BC2/2020", "setting": "concentration not given", "measurement": "inhibition", "value": "~47%"}
{"Structure (SMILES)": "Cc1oc2nc1C(=O)N[C@](C)(C(=O)OC(C)C)c1nc(c(C)o1)C(=O)N[C@](C)(C(=O)OC(C)C)c1nc(c(C)o1)C(=O)N[C@]2(C)C(=O)OC(C)C", "tested on": "SARS-CoV-2", "assay": "virucidal activity", "test system": "Vero E6, NRC-03-nhCoV", "setting": "20 µM", "measurement": "inhibition", "value": "57%"}
{"Structure (SMILES)": "Cc1ccc(N2CCN(C)CC2)cc1C(=O)NC1(c2ccc3c4c(cccc24)CC3)CC1", "tested on": "SARS-CoV-2", "assay": "viral replication", "test system": "Vero C1008, Omicron BA.5", "setting": "12.5 µM", "measurement": "inhibition", "value": "100%"}
{"Structure (SMILES)": "Cc1oc2nc1C(=O)N[C@](C)(C(=O)O)c1nc(c(C)o1)C(=O)N[C@](C)(C(=O)O)c1nc(c(C)o1)C(=O)N[C@]2(C)C(=O)O", "tested on": "SARS-CoV-2", "assay": "viral adsorption", "test system": "Vero E6, NRC-03-nhCoV", "setting": "10 µM", "measurement": "inhibition", "value": "24%"}
{"Structure (SMILES)": "CC(C)(C)NC(=O)[C@@H](c1cccnc1)N(C(=O)c1ccco1)c1ccc(C(C)(C)C)cc1", "tested on": "SARS-CoV-2", "assay": "viral replication", "test system": "Vero", "setting": "10 µM", "measurement": "inhibition", "value": "45.8%"}
{"note": "For quick reference, copied from above:"}
{"Structure (SMILES)": "Cc1ccc(N2CC3CC(C2)N3)cc1C(=O)NC1(c2ccc3c4c(cccc24)C(=O)N3C)CC1", "tested on": "SARS-CoV-2", "assay": "viral replication", "test system": "Vero C1008, Omicron BA.5", "setting": "0.05144 µM", "measurement": "inhibition", "value": "0%"}
{"Structure (SMILES)": "CCOC(=O)c1c(CSc2ccccc2)n(C)c2cc(-c3cccnc3)c(O)c(CN3CCN(CCOCCO)CC3)c12", "tested on": "SARS-CoV-2", "test system": "Vero C1008, MEX-BC2/2020", "setting": "concentration not given", "measurement": "inhibition", "value": "~47%"}
